Experimental data collected from several papers.
Parts stem from different laboratories: compare values within a part only.

Block 1 — technique: protein binding microarray; form: double-stranded DNA, one strand shown; medium: in vitro; tested at: not given; reference: not given; direction: higher = stronger binding; quantity: E-score
Target: Histone acetyltransferase KAT6A, winged helix 2, GST fusion (KAT6A, Homo sapiens, UniProt Q92794, residues 85-181)
Setting: 8-mer, flanks averaged, mean of 2 arrays, mostly near background
Target sequence (chain): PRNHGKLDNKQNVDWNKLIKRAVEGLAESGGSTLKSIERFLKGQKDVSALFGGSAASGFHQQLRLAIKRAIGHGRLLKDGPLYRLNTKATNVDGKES
AGCAAGGC: 0.13
CTAGTTCA: -0.0614
GGGTCAAC: 0.0896

Block 2 — technique: protein-binding microarray; form: double-stranded DNA, one strand shown; medium: in vitro; tested at: 250 nM; setting: 60-bp whole probe; together with: salmon DNA 0.4 mg/ml; reference: random background probes; direction: higher = stronger binding; quantity: log fluorescence
Target: Interferon regulatory factor 7, full length, phosphomimetic (IRF7, Homo sapiens, UniProt Q92985, residues 1-503, S101K/S471D/S472D/S475D/S476D/S477D/S483D/S484D/S487D)
Target sequence (chain): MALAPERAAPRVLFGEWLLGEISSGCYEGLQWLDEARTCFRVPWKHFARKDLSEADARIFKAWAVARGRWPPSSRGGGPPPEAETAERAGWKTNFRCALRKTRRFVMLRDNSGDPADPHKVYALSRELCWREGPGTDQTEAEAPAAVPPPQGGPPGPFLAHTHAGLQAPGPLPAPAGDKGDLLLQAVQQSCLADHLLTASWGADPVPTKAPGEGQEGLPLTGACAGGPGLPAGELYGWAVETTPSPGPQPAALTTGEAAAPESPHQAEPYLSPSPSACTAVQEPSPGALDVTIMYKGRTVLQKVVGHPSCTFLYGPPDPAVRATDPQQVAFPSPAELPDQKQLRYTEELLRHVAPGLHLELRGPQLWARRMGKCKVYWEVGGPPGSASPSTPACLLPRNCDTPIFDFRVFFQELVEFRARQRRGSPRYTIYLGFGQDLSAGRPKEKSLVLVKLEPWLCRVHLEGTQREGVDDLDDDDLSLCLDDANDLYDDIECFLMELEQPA
GCCTAGCACGGCTTGACGTCATCCCCTTGGTGCTAGGTCTTGATTCGCTTGACGCTGCTG: -0.404 z-score
GCCTAGCACGACGGTTTCCTTATCCTGACGTGCTAGGTCTTGATTCGCTTGACGCTGCTG: 3.2 z-score
GCCTAGCACTTAGGTCTCGGTCTCGGATAGTGCTAGGTCTTGATTCGCTTGACGCTGCTG: 1.67 z-score
GCCTAGCACGATGATTTCGGGTATCGAGACGTGCTAGTCTTGATTCGCTTGACGCTGCTG: 0.715 z-score

Block 3 — technique: aptamer microarray, sandwich; form: DNA with 2'F-ANA; medium: in vitro; tested at: 200 nM; together with: Cy3 exosite-II aptamer, 400 nM; direction: higher = stronger binding; quantity: mean fluorescence intensity
Target: Prothrombin, mature alpha-thrombin (F2, Homo sapiens, UniProt P00734)
Setting: whole 15-mer aptamer, many near background
GGTTGGTGTGGTTGG (2'F-ANA at 3 6 7 8 11): 1060 a.u.
GGTTGGTGTGGTTGG (2'F-ANA at 1 2 5 6 8 11): 54.1 a.u.
GGTTGGTGTGGTTGG (2'F-ANA at 3 7 9 15): 1100 a.u.
GGTTGGTGTGGTTGG (2'F-ANA at 1 2 3 4 5 7 9 10 13): 48.2 a.u.

Other studies, line by line
PhoQ, residues 284 288 289 292 302 303 STVVAA  fold induction (PhoP, residues 12 14 15 18 19 LWHVM (Escherichia coli, UniProt P23836); Sort-seq, measured: YFP reporter; E. coli; PhoQ-PhoP variant library, together with: 10 µM Mg2+; reference: high Mg2+ state, higher = stronger signaling): 9.94

Some of these lines once more (block 2):
GCCTAGCACTTAGGTCTCGGTCTCGGATAGTGCTAGGTCTTGATTCGCTTGACGCTGCTG: 1.67 z-score
